Assay results collected from several papers.
Numbered parts are unrelated; each lists some results of a single study.
Sequence of UniProt P21673 (whole entry, looked up): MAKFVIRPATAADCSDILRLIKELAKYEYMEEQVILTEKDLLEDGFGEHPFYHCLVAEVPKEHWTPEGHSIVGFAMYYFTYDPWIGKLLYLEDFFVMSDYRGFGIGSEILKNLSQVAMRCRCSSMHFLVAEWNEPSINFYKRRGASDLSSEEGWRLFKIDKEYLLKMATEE
Sequence of UniProt Q12866 (whole entry, looked up): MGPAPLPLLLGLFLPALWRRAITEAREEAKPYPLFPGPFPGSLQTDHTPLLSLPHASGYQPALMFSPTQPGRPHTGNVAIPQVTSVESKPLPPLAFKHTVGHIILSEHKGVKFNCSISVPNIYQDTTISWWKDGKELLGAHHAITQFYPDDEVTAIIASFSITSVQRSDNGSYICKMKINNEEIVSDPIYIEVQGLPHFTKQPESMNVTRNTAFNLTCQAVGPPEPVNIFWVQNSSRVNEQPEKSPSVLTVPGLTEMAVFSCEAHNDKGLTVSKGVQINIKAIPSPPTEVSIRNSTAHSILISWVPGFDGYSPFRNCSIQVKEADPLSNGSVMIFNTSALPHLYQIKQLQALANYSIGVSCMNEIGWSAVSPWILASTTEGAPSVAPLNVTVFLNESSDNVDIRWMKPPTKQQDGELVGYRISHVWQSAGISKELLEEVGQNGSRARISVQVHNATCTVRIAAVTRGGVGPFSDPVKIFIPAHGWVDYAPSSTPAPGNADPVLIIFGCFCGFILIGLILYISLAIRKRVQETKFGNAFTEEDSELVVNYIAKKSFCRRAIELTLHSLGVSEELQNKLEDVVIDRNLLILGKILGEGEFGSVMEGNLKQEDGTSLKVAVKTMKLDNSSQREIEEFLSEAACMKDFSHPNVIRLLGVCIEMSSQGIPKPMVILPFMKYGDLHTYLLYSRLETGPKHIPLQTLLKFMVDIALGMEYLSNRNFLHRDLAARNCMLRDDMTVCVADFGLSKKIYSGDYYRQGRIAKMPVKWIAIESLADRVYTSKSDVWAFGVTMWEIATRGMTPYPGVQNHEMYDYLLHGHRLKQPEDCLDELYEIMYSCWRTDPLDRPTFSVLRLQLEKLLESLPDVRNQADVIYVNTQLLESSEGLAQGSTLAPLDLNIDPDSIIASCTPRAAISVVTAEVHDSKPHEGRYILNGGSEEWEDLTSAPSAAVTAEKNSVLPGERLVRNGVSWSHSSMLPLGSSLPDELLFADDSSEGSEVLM
Sequence of UniProt Q04912 (whole entry, looked up): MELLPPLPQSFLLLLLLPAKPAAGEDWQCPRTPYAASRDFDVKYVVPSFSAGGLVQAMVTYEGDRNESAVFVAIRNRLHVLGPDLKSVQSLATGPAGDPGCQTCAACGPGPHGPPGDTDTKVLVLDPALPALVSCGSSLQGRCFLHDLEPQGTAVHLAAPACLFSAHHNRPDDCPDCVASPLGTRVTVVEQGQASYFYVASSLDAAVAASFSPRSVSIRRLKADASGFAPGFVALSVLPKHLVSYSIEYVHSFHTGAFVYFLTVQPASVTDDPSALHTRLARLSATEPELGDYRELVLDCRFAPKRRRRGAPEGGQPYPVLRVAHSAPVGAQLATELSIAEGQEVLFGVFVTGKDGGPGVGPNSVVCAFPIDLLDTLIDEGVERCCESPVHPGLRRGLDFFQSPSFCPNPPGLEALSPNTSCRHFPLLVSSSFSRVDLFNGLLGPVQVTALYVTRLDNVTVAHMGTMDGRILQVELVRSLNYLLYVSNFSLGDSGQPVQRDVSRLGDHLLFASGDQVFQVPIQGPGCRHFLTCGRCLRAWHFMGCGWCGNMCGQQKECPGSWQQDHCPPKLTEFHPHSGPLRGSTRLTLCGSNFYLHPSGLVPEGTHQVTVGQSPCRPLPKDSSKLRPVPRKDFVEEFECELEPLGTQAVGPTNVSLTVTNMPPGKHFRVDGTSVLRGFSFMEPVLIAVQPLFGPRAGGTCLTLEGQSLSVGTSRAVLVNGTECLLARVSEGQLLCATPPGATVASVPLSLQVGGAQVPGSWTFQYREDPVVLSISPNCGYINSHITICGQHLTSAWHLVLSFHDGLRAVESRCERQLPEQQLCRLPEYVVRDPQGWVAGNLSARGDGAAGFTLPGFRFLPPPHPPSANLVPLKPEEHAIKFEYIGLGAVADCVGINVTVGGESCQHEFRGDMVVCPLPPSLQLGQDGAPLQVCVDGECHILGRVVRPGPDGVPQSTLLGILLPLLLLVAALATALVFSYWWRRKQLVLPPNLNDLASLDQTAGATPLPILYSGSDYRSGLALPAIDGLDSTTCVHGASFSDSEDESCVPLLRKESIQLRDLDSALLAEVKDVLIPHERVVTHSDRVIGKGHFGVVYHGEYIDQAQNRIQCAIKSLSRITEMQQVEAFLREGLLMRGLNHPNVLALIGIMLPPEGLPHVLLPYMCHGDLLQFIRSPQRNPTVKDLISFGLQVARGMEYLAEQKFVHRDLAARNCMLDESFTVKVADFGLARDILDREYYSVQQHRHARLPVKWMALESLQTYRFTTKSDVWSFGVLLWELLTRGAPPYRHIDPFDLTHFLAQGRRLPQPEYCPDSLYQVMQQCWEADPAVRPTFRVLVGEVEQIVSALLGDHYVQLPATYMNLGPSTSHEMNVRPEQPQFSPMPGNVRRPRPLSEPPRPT
Sequence of UniProt Q15349 (whole entry, looked up): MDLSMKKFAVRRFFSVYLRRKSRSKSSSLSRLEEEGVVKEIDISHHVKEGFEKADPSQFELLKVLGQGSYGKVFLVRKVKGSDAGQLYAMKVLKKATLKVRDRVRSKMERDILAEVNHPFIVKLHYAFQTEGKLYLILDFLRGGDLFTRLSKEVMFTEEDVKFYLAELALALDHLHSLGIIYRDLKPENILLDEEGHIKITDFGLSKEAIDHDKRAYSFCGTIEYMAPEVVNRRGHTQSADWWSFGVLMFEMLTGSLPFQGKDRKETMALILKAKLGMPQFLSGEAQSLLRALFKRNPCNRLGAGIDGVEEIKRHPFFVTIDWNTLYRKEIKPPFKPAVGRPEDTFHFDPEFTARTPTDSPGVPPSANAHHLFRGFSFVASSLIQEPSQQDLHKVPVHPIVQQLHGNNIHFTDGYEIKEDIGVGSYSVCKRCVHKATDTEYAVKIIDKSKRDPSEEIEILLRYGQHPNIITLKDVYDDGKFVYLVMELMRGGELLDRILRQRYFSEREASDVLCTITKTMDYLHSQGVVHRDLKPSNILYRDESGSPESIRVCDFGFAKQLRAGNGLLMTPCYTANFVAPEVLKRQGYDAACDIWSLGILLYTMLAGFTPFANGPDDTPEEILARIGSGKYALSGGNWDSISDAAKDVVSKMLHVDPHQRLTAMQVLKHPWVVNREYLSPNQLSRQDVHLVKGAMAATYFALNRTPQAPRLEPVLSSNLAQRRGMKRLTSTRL
Sequence of UniProt Q8WTQ7 (whole entry, looked up): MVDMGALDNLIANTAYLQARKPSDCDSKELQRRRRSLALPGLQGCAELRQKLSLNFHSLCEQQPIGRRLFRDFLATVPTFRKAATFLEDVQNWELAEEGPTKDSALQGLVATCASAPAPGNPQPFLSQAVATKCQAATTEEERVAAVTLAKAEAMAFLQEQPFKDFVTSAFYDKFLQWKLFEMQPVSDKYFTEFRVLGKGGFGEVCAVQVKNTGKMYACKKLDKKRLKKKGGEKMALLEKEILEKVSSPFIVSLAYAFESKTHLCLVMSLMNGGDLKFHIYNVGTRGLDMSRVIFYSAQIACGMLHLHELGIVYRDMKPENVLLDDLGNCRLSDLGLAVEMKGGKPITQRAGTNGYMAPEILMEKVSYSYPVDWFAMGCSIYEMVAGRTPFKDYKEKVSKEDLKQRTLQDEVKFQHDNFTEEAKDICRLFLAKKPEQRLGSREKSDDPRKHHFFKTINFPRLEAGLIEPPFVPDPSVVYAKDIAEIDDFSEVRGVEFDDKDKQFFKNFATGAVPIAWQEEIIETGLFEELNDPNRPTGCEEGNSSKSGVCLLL
Sequence of UniProt Q9UHD2 (whole entry, looked up): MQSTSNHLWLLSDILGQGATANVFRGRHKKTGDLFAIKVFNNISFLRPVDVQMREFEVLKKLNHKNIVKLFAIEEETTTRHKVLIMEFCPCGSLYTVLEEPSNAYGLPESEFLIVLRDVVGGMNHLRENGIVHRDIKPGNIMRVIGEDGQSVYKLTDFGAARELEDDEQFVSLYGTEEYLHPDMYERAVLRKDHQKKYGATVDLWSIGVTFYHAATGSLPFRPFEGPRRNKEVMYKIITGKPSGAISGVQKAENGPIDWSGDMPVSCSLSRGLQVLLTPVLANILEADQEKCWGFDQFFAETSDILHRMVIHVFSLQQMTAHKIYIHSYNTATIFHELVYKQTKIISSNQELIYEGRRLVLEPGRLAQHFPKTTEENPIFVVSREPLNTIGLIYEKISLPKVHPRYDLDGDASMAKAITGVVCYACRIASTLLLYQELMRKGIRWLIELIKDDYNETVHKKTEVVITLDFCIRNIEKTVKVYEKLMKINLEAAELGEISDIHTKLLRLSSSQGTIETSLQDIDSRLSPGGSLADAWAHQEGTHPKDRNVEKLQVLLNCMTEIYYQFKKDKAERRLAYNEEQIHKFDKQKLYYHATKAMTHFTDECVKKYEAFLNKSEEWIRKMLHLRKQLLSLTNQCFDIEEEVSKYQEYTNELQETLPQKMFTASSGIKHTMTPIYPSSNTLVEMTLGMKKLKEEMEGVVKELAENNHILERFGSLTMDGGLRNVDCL

Block 1 — cell line: mouse MPNST tumor cells; technique: high-content nuclear imaging; refers to: cell number; tested at: 10 µM; time: 12 h; notes: mean of 2 replicates; baseline: plate mean; reading: higher = more cells
`NCCc1c[nH]c2ccc(O)cc12` gave a nuclei count of -0.694 z-score.
The nuclei count of `CC(=O)OCC1=C(C(=O)O)N2C(=O)C(N)C2SC1` (stereo not shown) is reported as -0.246 z-score.
With `C[C@]12CCC(=O)C=C1C=C[C@@H]1[C@@H]2CC[C@@]2(C)[C@H]1CC[C@@]2(O)CCC(=O)O` the nuclei count was -1.13 z-score.
For `CC(C)(Cc1c[nH]c2ccc(Cl)cc12)NCCOc1ccccc1OCC1CC1`, the nuclei count was -5.74 z-score.

Block 2 — read-out: enzyme activity; action: inhibitor; tested at: 0.5 µM; baseline: control
SMILES: O=C1NC(=O)c2c1c1c3ccccc3n3c1c1c2c2ccccc2n1[C@H]1CC[C@@H]3O1
It gave 87.7% for remaining activity (MST1R (Homo sapiens, UniProt Q04912)).
For TBK1 (Homo sapiens, UniProt Q9UHD2): remaining activity read 7.4%.
For MAP3K5 (Homo sapiens, UniProt Q99683): remaining activity read 56.2%.
It gave 53.4% for remaining activity (GRK7 (Homo sapiens, UniProt Q8WTQ7)).
The remaining activity was 1.33% (RPS6KA2 (Homo sapiens, UniProt Q15349)).
The remaining activity was 13.6% (MERTK (Homo sapiens, UniProt Q12866)).

Block 3 — cell line: HEK-293T-ACE2; technique: Hoechst nuclei count; tested at: concentration not given; notes: counter-screen; baseline: vehicle
`C/C=C1\NC(=O)[C@H]2CSSCC/C=C/[C@H](CC(=O)N[C@H](C(C)C)C(=O)N2)OC(=O)[C@H](C(C)C)NC1=O` gave a cell number of 61.2%.
`Cc1cc(Nc2ncc(Cl)c(Nc3ccccc3S(=O)(=O)C(C)C)n2)c(OC(C)C)cc1C1CCNCC1` has a cell number of 95%.
The cell number of `N=C(N)NCCN1CCCCCCC1.O=S(=O)(O)O` is reported as 106%.
With `CC[C@H]1OC(=O)[C@H](C)[C@@H](O[C@H]2C[C@@](C)(OC)[C@@H](O)[C@H](C)O2)[C@H](C)[C@@H](O[C@@H]2O[C@H](C)C[C@H](N(C)C)[C@H]2O)[C@](C)(O)C[C@@H](C)CN(C)[C@H](C)[C@@H](O)[C@]1(C)O` the cell number was 100%.
`CNC[C@H](O)[C@@H](O)[C@H](O)[C@H](O)CO.CNC[C@H](O)[C@@H](O)[C@H](O)[C@H](O)CO.C[C@@H](O[C@H]1OCCN(Cc2nn(P(=O)(O)O)c(=O)[nH]2)[C@H]1c1ccc(F)cc1)c1cc(C(F)(F)F)cc(C(F)(F)F)c1` has a cell number of 97.7%.
`CC(C)C[C@H](NC(=O)CNC(=O)c1cc(Cl)ccc1Cl)B(O)O` gave a cell number of 57.4%.
`CCC(CC)[C@H](NC(C)=O)[C@@H]1[C@H](O)[C@@H](C(=O)O)C[C@H]1NC(=N)N.O.O.O` gave a cell number of 105%.
The cell number of `CC(=O)OC(C)OC(=O)C(C)c1ccc(-c2ccccc2)c(F)c1` (stereo not shown) is reported as 97.4%.

Other studies, line by line
For `c1cc2c(cc1[C@H]1OC[C@H]3[C@@H]1CO[C@@H]3c1ccc3c(c1)OCO3)OCO2`, the remaining activity was 88.8% (Diamine acetyltransferase 1 (Homo sapiens, UniProt P21673); inhibitor; 10 µM; baseline: control).

Excerpt of the above (block 1):
With `C[C@]12CCC(=O)C=C1C=C[C@@H]1[C@@H]2CC[C@@]2(C)[C@H]1CC[C@@]2(O)CCC(=O)O` the nuclei count was -1.13 z-score.
For `CC(C)(Cc1c[nH]c2ccc(Cl)cc12)NCCOc1ccccc1OCC1CC1`, the nuclei count was -5.74 z-score.
